Measured values of several laboratories.
A part holds a random share of what one study measured.

Block 1
SMILES: O=C1CCC(N2Cc3cc(C4CCN(Cc5ccccc5)CC4)ccc3C2=O)C(=O)N1 (centres unmarked)
Sample: plasma
Measurement: concentration
male Sprague-Dawley rat; intravenous, 1 mg/kg, 4 h: 21.4 ng/mL
male CD-1 mouse; oral, 3 mg/kg, 8 h: 5.04 ng/mL
male Sprague-Dawley rat; intravenous, 1 mg/kg, 2 h: 41.8 ng/mL
male Sprague-Dawley rat; oral, 3 mg/kg, 6 h: 15.3 ng/mL
male CD-1 mouse; intravenous, 1 mg/kg, 6 h: 13.7 ng/mL
male Sprague-Dawley rat; oral, 3 mg/kg, 4 h: 61.8 ng/mL
male Sprague-Dawley rat; oral, 3 mg/kg, 15 min: 24.8 ng/mL
male CD-1 mouse; intravenous, 1 mg/kg, 8 h: 9.19 ng/mL
male CD-1 mouse; oral, 3 mg/kg, 15 min: 236 ng/mL

Block 2
Target: Beta-1 adrenergic receptor (ADRB1, Homo sapiens, UniProt P08588)
UniProt P08588, sequence (whole entry, looked up): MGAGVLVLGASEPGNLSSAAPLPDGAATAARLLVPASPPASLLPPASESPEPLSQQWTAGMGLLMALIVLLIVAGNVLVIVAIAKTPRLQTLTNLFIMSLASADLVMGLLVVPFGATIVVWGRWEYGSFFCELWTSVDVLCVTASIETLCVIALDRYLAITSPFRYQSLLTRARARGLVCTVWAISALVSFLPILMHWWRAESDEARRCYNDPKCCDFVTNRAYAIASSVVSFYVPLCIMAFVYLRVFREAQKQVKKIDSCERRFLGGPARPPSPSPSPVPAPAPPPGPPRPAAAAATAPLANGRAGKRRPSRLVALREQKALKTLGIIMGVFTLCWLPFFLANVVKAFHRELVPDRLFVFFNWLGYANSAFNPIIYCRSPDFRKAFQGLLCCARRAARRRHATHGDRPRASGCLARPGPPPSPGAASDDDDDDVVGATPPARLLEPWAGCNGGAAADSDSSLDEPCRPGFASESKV
Action: agonist
Measurement: EC50
CN(C)c1cccc(NC(=O)Cc2c[nH]c3ncc(-c4cnn(C)c4)cc23)c1: ≥ 100 µM
Cn1cc(-c2cnc(NC(=O)Cc3ccc(F)cc3)c3c2CCO3)cn1: ≥ 100 µM
Cc1cc(C)n(-c2ccc(=O)n(CC3CN(c4nc5c(cc4C#N)CCC5)C3)n2)n1: ≥ 100 µM
COc1cc(CN2CCOCC2)ccc1OCC(O)CN1CCSCC1 (centres unmarked): ≥ 100 µM
OC(c1ccc2c(c1)CCO2)c1nc(Nc2cccc(C(F)(F)F)c2)n[nH]1 (centres unmarked): ≥ 100 µM
COc1ccc(OCC(O)CN2CCC(O)CC2)c(CNCC2(O)CCCCC2)c1 (centres unmarked): ≥ 100 µM

Block 3
Target: Calcium/calmodulin-dependent protein kinase type II subunit alpha (CAMK2A, Homo sapiens, UniProt Q9UQM7)
UniProt Q9UQM7, sequence (whole entry, looked up): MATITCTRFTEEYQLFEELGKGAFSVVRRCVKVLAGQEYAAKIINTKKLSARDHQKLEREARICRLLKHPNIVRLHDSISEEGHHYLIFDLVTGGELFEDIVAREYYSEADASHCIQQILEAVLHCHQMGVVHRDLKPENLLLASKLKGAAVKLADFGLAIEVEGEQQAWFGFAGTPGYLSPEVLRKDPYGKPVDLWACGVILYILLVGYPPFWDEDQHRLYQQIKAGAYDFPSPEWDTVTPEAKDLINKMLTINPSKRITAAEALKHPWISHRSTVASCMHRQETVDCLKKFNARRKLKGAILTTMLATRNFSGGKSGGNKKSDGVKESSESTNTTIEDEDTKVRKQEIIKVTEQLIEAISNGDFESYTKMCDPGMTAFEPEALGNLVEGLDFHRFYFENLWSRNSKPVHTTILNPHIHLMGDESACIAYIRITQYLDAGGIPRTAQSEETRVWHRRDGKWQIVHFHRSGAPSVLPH
Observed: enzyme activity
Action: inhibitor
Concentration: 10 µM
Measurement: inhibition
Cn1c(=O)c2nc[nH]c2n(C)c1=O: 10%
COc1cc2c(cc1O)C[C@H]1c3cc(O)c(OC)cc3CC[N+]1(C)C2 (some centres unmarked): 37%
COc1cc(O)cc(CCc2cccc(O)c2)c1: 4%
COc1cc(C)c2c(Oc3cccc(C(F)(F)F)c3)c(OC)cc(NC(C)CCCN)c2n1 (centres unmarked): 0%
COc1cc(-c2coc3cc(O)c(OC)c(O)c3c2=O)cc(O)c1OC: -34%
C[C@]12C=CC(=O)C=C1CC[C@@H]1[C@@H]2[C@@H](O)C[C@@]2(C)[C@H]1CC[C@]2(O)C(=O)COC(=O)CCC(=O)O: -8%
CN(C)CCOC(c1ccccc1)c1ccccc1: -1%
COc1ccc2cc1Oc1ccc(cc1)C[C@H]1c3cc(c(OC)cc3CCN1C)Oc1c(O)c(OC)cc3c1[C@@H](C2)N(C)CC3: -11%
COc1cc(/C=C/C(=O)OC(C)C)ccc1O: 0%

Block 4
Target: D(2) dopamine receptor (DRD2, Homo sapiens, UniProt P14416)
UniProt P14416, sequence (whole entry, looked up): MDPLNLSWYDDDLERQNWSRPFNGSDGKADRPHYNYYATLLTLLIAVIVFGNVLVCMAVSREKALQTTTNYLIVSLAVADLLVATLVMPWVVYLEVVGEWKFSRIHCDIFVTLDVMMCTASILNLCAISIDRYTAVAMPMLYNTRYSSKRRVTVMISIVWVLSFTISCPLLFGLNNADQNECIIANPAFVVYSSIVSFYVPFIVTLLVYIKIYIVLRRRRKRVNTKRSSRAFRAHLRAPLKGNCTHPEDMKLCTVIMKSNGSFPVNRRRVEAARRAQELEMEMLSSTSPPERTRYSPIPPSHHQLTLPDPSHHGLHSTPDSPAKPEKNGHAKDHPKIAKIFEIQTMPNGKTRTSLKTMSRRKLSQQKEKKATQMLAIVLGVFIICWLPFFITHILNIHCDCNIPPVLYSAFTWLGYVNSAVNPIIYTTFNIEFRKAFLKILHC
Observed: binding
Method: radioligand binding
Concentration: 10 µM
Measurement: inhibition
CCOCCn1cc(C(=O)Nc2ccc(-n3nc(-c4cccnc4)cc3C(F)(F)F)cn2)ccc1=O: -5.62%
CC(=O)Nc1c(F)cc(C(=O)N[C@H]2CC[C@H](O)CC2)cc1O[C@@H](C)c1ccccc1: 25.8%
Cc1c(N2CCCC2)nc2ccc(Br)cc2c1C(=O)NC[C@H](CCC(=O)O)c1ccccc1Cl: 9.71%
Cc1nc(Cc2cccc(C(F)(F)F)c2)sc1-c1ccc(C(N)=O)nc1: -5.26%
O=C1CCc2cc(Nc3cc(OC4CCOCC4)c([N+](=O)[O-])cc3Cl)ccc2N1: 2.86%
CC(C)(O)c1cncc(-c2nc3ccc(F)cc3n2C2CC2)c1: -27.1%
COCc1nc2cnc3cc(-c4c(C)noc4C)c(OC[C@H]4CCNC4)cc3c2n1[C@H](C)c1ccccc1: 27.7%
CC1=C(C#N)C(c2ccc3c(c2)c(NC(=O)c2ccccc2C)nn3C)C(C#N)=C(C)N1: -13.7%
O[C@]1(C(F)(F)F)CCCC[C@H]1Nc1ccc(F)cc1: -22.1%
CC1=C(C#N)[C@@H](c2ccc3[nH]nc(C)c3c2)C(C#N)=C(c2ccc(Cl)cc2)N1: 10.6%
CN([C@@H]1CCc2c(CC(=O)O)c3cc(S(C)(=O)=O)ccc3n2C1)S(=O)(=O)c1ccc(F)cc1: -3.84%
O=C(Nc1cnc(Oc2ccc(F)cc2)nc1)N1CCc2ncccc2[C@@H]1c1ccc(F)cc1: 1.65%
CNC(=O)c1ccc(Nc2ncc(C(F)(F)F)c(NCc3nccnc3N(C)S(C)(=O)=O)n2)cc1: -33.3%
COc1nc2ccc([C@@](O)(c3ccccc3)C3CCN(C(C)=O)CC3)cc2c(Cl)c1Cc1ccc(-n2cccn2)cc1: 12.5%
COCCc1ccc(-c2c(C)nc3c(N4CCOCC4)ccnn23)cn1: -10.5%
CC(=O)c1c(NS(C)(=O)=O)c2cc(-c3ccc(Cl)cc3)c(-c3ccc(Cl)cc3Cl)nc2n(C)c1=O: 2.43%
Cc1cc(-n2nc(Cc3cc(F)cc(C(F)(F)F)c3)nc2C)ccc1C(N)=O: 0.68%
O=C(Nc1cccnn1)N1CC(CC=Cc2cncc(Oc3ccc(C(F)(F)F)cn3)n2)C1: 13.7%
C[C@H](NC(=O)c1cnc2n1[C@](C)(Cc1ccc(C#N)cc1)C(=O)N2c1cc(Cl)c(F)c(Cl)c1)C(=O)NC1(c2ccccn2)CC1: 7.62%
O=C(Nc1ccc(-n2nc(-c3cccnc3)cc2C(F)(F)F)cn1)c1ccc(-c2ccccc2)c(F)c1: -9.24%
C[C@@H]1CN(c2cc(-c3nn(C)c4ccc(OC5(C)CC5)cc34)ncn2)C[C@H](C)O1: -0.18%
Cc1c(NC(=O)c2cc(C(N)=O)nc3cc(F)ccc23)c(C(F)(F)F)nn1Cc1ccc(C(C)(C)C)cc1: 18%
CC(C)CC(=O)N1CCc2nc(-c3ccc(Br)cc3)nc(N(C)Cc3ccccc3)c2C1: -26.5%
Cc1nc(N2CC[C@@H](O)C2)ncc1-c1cc(C(F)(F)F)cc2[nH]ncc12: 12.6%
CC(=O)N1CCC(c2ccc(C(=O)NC(=N)N)cc2C(F)(F)F)CC1: -19.5%

Block 5
Target: Eukaryotic initiation factor 4A-III (Homo sapiens, UniProt P38919)
UniProt P38919, sequence (whole entry, looked up): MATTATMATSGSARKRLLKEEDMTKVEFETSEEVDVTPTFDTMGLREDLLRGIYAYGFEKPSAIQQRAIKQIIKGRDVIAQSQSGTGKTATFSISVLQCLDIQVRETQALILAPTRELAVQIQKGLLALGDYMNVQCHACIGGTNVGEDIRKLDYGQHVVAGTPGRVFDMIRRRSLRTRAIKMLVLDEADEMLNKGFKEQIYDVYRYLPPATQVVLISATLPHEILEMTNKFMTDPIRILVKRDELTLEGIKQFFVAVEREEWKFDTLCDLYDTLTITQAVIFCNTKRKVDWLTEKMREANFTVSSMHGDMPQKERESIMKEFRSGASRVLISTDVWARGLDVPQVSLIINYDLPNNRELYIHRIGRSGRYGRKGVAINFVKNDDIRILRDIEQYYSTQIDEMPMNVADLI
Observed: RNA clamping
Method: fluorescence polarization
Concentration: concentration not given
With: FAM-labelled poly r(AG)8 RNA
Measurement: fluorescence polarization change
CONC(=O)[C@H]1[C@@H](O)[C@@]2(O)c3c(OC)cc(O)cc3O[C@@]2(c2ccc(Br)cc2)[C@@H]1c1ccccc1: 57.6 mP
COC(=O)/C=C/Cn1c(-c2ccccc2)nc2c(c1=O)[C@@H](c1ccccc1)[C@]1(c3ccc(OC)cc3)Oc3cc(OC)cc(OC)c3[C@]21O: 3.7 mP
COc1ccc([C@]23Oc4cc(OC)cc(OC)c4[C@](O)([C@H](C(=O)NCCCC(OC)OC)[C@H]2c2ccccc2)[C@@H]3O)cc1: -9.7 mP
COC(=O)[C@@H]1[C@@H](c2ccccc2)[C@]2(c3ccc(OC)cc3)Oc3cc(OC)cc(OC)c3[C@@]23OC(c2ccc(OCc4ccccc4)cc2)=N[C@@]13O: 4.9 mP
COc1ccc([C@@]23Oc4cc(OC)cc(OC)c4[C@]2(O)c2nc(-c4ccccn4)[nH]c(=O)c2[C@H]3c2ccccc2)cc1: 12.1 mP
COC(=O)[C@@H]1[C@@H](c2ccccc2)[C@]2(c3ccc(OC)cc3)Oc3cc(OC)cc(OC)c3[C@@]23NC(c2ccc(C(F)(F)F)cc2)=N[C@@]13O: 0.4 mP
COc1cc(OC)c2c(c1)O[C@@]1(c3ccc(C#N)cc3)[C@H](c3ccccc3)[C@@H](CN(C)C)[C@@H](O)[C@@]21O: 46.4 mP

Excerpt of the above (block 3):
COc1cc(/C=C/C(=O)OC(C)C)ccc1O: 0%
COc1cc2c(cc1O)C[C@H]1c3cc(O)c(OC)cc3CC[N+]1(C)C2 (some centres unmarked): 37%
COc1ccc2cc1Oc1ccc(cc1)C[C@H]1c3cc(c(OC)cc3CCN1C)Oc1c(O)c(OC)cc3c1[C@@H](C2)N(C)CC3: -11%
Cn1c(=O)c2nc[nH]c2n(C)c1=O: 10%
